Results pooled from the literature.
Every numbered part comes from another study and shows a few of its results, in no order.

Series 1 — method: RNA Bind-n-Seq; molecule type: RNA; sample: in vitro; tested at: 365 nM; relative to: no-protein control; direction: higher = stronger binding
Target: RNA binding protein fox-1 homolog 2, RRM domain, GST-SBP tag (RBFOX2, Homo sapiens, UniProt O43251-10, residues 100-194)
Setting: natural RNA segment, single round, ends assumed
Construct (chain): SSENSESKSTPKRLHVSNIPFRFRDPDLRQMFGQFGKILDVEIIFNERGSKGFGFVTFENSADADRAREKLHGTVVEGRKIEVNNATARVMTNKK
Under “RBNS enrichment (R)”, `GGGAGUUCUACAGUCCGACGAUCGUCUUUGAGCAAGUAGGCAAGAUAAGCUCUUCCUUCGUCACAGCCAUGACCAUCAGGUUAGUAACCGAGACUUUGCCCUGGUGAGCUGAGAGUAGACCUGGUUACCGGCAUGGAAUUCUCGGGUGCCAA` is recorded as 0.727.
`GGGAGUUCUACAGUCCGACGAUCCCGUCCUAAACACUUCCUAGCUCCCGGGACUGGGGGGUUUGUCUGGCAUAGCCAUGCUGGUAGCAAGAGAGAAAAAAUCAACAGCAAACAAAACCACACAAACCAAACCGUGGAAUUCUCGGGUGCCAA` — result for “RBNS enrichment (R)”: 0.502.
`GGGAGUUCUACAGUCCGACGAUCGAAAGCAGGCUGAGGUUAUUAUUGCUAACACACCUCAGCCGAGCAGGCUAUGUACCUCGAAGGGAGGGCCUGGGGGACAAUGUUACCGAGAGGAGAAUGUGAGCACAUUUUGGAAUUCUCGGGUGCCAA`: “RBNS enrichment (R)” 1.53.
`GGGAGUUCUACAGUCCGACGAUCCUCCUUUAUCAGUUAGCUGUUUUAUCAUUAGGAUACAAGACAGCCCAGUGUCAUCAACAGUGAGCAAAUCUGGCAUGGUGUUUGUCUCGUACAGUUGGGAUAGGAGGCCAUGGAAUUCUCGGGUGCCAA` — result for “RBNS enrichment (R)”: 7.12.
For `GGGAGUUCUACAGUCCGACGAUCACUCAGCCUAGCUCACAGUGACUUGUGCUUCACUGUCAGGAUGCUCUGUAAAGUUCCUCAUCCCUGUGAAGCAGGGAAAGAACAGAGGUGCCUCUGGACUGCAGGAGAAAUGGAAUUCUCGGGUGCCAA`, “RBNS enrichment (R)” read 0.294.
`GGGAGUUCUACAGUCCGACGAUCGGGAGUGUGCUCCAGCUGCCCCCGACUUGUUUGGGUGAUCUCUCUGGGGCGGCACGUUUUACUCUUUAUCUCGCUUUCGGAGGUGCUUUCGCAGGAGCAUUAACCUCCUGUGGAAUUCUCGGGUGCCAA`: “RBNS enrichment (R)” 0.554.
Under “RBNS enrichment (R)”, `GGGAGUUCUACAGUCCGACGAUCGCAAAUGCUCCCUCCUUAAGGUUAUAGGGCUCCCUGAGUUUGGGAGUGUGGAAGUACUACUUAACUGUCUGUCCUGCUUGGCUGUCGUUAUCGUUUUCUGGUGAUGUUGUUGGAAUUCUCGGGUGCCAA` is recorded as 0.702.
Under “RBNS enrichment (R)”, `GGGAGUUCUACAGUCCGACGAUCGAAGCCCCCUGUGUGACCUGAGCACAGACUCCAUUUCUUCAGGUUUUGUAUAUCUCCAGGCAAGGUGAAGGGUACCCUUCGGACCCGCCUCAUAAACCAUCUCUGCAUCAUGGAAUUCUCGGGUGCCAA` is recorded as 0.63.
`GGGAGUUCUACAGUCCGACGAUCGGGGAAAAGAUAUUAACAUCACGUCUUUGUCUCUAGUGCAGUUUUUCGAGAUAUUCCGUAGUACAUAUUUAUUUUUAAACAACGACAAAGAAAUACAGAUAUAUCUUAAAUGGAAUUCUCGGGUGCCAA` — result for “RBNS enrichment (R)”: 0.721.
`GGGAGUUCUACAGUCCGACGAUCGCCUCUGUUUAUUUUUGCUUGUUGGAAAUAGGGUUCAACCAUGCAUAGUUAGAAUCACUAUGCAUCUGUCUGUCCACACAGGAAGUGCUAUAGCUCUCAAGUGCUCUAGAUGGAAUUCUCGGGUGCCAA`: “RBNS enrichment (R)” 1.27.
`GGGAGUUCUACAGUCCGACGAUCUUUCGGGGGUUCUUUGGGGUUUGUUUGUUUGCUUCUUUUCCAGAGUGUGGAAAGUCUACAGUGCAGAAAGGCUUGAACCUGCCAGCUGAUUUGAAAUACUUUCCCCUGCGUGGAAUUCUCGGGUGCCAA` — result for “RBNS enrichment (R)”: 2.53.
For `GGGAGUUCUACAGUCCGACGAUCGCACUGCCCAGGCCAGAGGGUAGAGCACAGGGGUUUCCCCAUACUACCUCCCCUCCCCAGGACACUCCCAGGCUUGGGUUUUUUCUAUAGGUUUGGCGGGGGGCCACAGGUGGAAUUCUCGGGUGCCAA`, “RBNS enrichment (R)” read 0.689.

Series 2 — method: protein binding microarray; molecule type: double-stranded DNA, one strand shown; sample: in vitro; tested at: not given; relative to: not given; direction: higher = stronger binding
Target: Histone acetyltransferase KAT6A, winged helix 1, GST fusion (KAT6A, Homo sapiens, UniProt Q92794, residues 1-85)
Setting: 8-mer, flanks averaged, mean of 2 arrays, mostly near background
Construct (chain): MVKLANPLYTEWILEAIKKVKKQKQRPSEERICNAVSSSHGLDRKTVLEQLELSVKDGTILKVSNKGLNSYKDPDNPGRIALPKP
The E-score of `GGTGCAAC` is reported as -0.0457.
The E-score of `ATCTGCAC` is reported as -0.158.
With `TTGACCAA` the E-score was -0.153.
With `AGGACACG` the E-score was 0.102.
With `AAAGTAAG` the E-score was -0.218.
`GCCCGACC` has an E-score of 0.158.
With `GACTTCTA` the E-score was -0.068.
`CCTCTTCC` gave an E-score of -0.0289.
`CAGACTAG` gave an E-score of -0.129.
`GTCAACAA` has an E-score of -0.181.
`CTACCGTA` has an E-score of 0.143.
`AAGCCGCA` gave an E-score of 0.286.
With `AGACGCAG` the E-score was -0.114.
`ACCTTCCG` gave an E-score of 0.199.
`GGAAGACA` gave an E-score of -0.122.
With `CCCCCTCC` the E-score was -0.168.
With `ACGATACT` the E-score was -0.0624.
With `ATCCGTAA` the E-score was 0.254.
`CGGCTAAG` gave an E-score of 0.308.
`ATTCAAGA` gave an E-score of -0.226.
For `CTGTTACC`, the E-score was -0.0138.

Series 3 — method: RNA Bind-n-Seq; molecule type: RNA; sample: in vitro; tested at: not given; relative to: input RNA pool; direction: higher = stronger binding
Target: RING finger protein unkempt homolog, zinc fingers 1-6, GST-SBP tag (UNK, Homo sapiens, UniProt Q9C0B0, residues 30-357)
Setting: RNA with constant flanks, human and mouse sites, ends assumed
Residues (chain): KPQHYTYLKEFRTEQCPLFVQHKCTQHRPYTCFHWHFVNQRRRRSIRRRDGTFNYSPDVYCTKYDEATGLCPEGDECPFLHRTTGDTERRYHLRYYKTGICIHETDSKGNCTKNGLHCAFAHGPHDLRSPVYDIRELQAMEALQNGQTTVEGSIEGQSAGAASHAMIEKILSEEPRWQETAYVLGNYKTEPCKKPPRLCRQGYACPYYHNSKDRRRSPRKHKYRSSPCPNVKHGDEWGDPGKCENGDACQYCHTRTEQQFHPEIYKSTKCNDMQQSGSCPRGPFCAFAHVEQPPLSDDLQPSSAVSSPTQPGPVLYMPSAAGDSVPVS
`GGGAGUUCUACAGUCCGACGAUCACGGUCACCAUUCUUGUCAGCCUGGCCCUUGCCUUCCUUGCUUGCAUUGUGUUCCUGGUGGUUUACAAAGCCUUUACCUAUGACCACAGCUGUCCUGAAGGAUUUGUCUACAAGCACAAGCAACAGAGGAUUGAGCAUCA` has a bound/input enrichment of 0.0615 ratio.
`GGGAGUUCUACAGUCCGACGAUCACAGUUUUCAAAAGUUCUUAAAGGCAAGAGUGAAUUUCUGUGGAUUUUACUGGUCCCAGCUUUUAGGUUCUUUAAGACACUAACAGGACUACAUAGAGGCUUUUUCAGCAUUACUGUGUCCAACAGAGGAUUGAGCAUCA` has a bound/input enrichment of 0.285 ratio.
For `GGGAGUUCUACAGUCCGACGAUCUUGCCUUUUCAGAGCAUGAGGUCAGGCUCUGUAUCCCUCCUUUUCCUAGCUGAUAUUCUAACUAGAAGCAUUUGUCAAUUCCUUUGCCUCCCAACUGACAACACACGUUCAUUUUCCAACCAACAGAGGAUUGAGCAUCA`, the bound/input enrichment was 1.88 ratio.
The bound/input enrichment of `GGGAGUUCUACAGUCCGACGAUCCGGUCCAUCCUUUCAGUCUGAGACCGGCCCAGAAGAAAAAAACCCCAAAAACCUUAAUUUUCUUUCUUGUUCGGUACCUACAUUGGAACCAUCAAAAACAAUUAUUUCAGUAAACCGUAGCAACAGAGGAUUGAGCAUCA` is reported as 0.509 ratio.
For `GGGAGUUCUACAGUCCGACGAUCUUUGUUACCUAACCAACCUUCACUGAAAGGCAAAUUUAGUUCAGGAGGUUAGUUUUUAGCUAGCUUUGGAAGUAAGCCUUUAUUUAUUACUUUUUGGAGGAAAUCAGAGAAGUGUCAAUGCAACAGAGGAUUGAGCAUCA`, the bound/input enrichment was 0.279 ratio.
With `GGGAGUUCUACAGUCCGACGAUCCUCAAUACCAUUCCAUUGUUUGUGCAGUUGCUUUAUUCUCCCAUUGAAAAUAUCCAAAGAGUAGCUGCAGGGGUCCUCUGUGAACUUGCUCAGGACAAGGAGGCUGCAGAGGCCAUUGAACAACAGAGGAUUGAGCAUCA` the bound/input enrichment was 0.425 ratio.
For `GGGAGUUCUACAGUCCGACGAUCUCAUUUGCUCCUGAAUCUUGCUCAUUCUUUUUCUCUAGGUCUUUUUCUUUUGAGUUUUCCUAGCUAUUCAACUUUCCGUUGUGUCCUUUUUUGCUGUCUCUGUGUUCCUCUCAUUCUCAACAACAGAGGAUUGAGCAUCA`, the bound/input enrichment was 2.05 ratio.
For `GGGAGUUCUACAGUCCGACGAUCUUGGAUAUUUUUUCAGCAAAGUAUCAUUUAGAAAAAAUUUUCUUGAAACAAAGUCUAUAAAGUUCUAAGUCCUACCAUUGAGUGAAUUUGAUAUUAUGGCAGCAACUUACAGACUUGUGGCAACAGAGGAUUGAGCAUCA`, the bound/input enrichment was 0.301 ratio.
With `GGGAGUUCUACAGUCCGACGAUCAAUUAUGAAAGCAUAAAACAUGAGCCUGAAAACCCCCCACCAUAUGAAGAGGCCAUGAGUGUAUCACUAAAAAAAGUAUCAGGAAUAAAGGAAGAAAUUAAAGAGCCUGAAAAUAUUAAUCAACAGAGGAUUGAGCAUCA` the bound/input enrichment was 0.454 ratio.
For `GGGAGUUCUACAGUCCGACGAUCCCUUCUUCAGUACCCGCCUGAUUCAGGCUGGGGAGCAGCUCGGGUUCGACUACGGGGAGCGCUUUUGGGACGUCAAGGGCAAGCUCUUCAGUUGCCGGUGUGGGUCUUCCAAGUGUCGGCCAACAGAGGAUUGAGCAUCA`, the bound/input enrichment was 0.13 ratio.
`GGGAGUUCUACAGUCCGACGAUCUCUGGGCAGAGUGAGGAGUCCCCUCGGAAACGACGGAAGGCAACGGAAGCCAUAGACUCUCUUAGGAAAUCCAAACGACUUCGGAAUAGGAAGUAGAUUGGAAUAUGGCUCUAGCUCCAGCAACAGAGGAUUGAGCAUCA` gave a bound/input enrichment of 2.1 ratio.

Series 4 — method: protein-binding microarray; molecule type: double-stranded DNA, one strand shown; sample: in vitro; tested at: not given; direction: higher = stronger binding
Target: Protein max, full length (MAX, Homo sapiens, UniProt P61244-2, residues 1-151)
Setting: k-mer, scored over probes, only values ≥0.25
The E-score of `AGCACACC` is reported as 0.295.
`AACATCGT` has an E-score of 0.273.
With `ACACGCCC` the E-score was 0.305.
With `ACACGGTG` the E-score was 0.327.
The E-score of `TGCTTCCA` is reported as 0.28.
`GTGCACGA` gave an E-score of 0.348.
For `CGTGCACC`, the E-score was 0.388.
`CATGTCGC` gave an E-score of 0.305.
With `AGCACGGG` the E-score was 0.375.
With `CACGCGGA` the E-score was 0.47.
For `ACCTTGTG`, the E-score was 0.295.
With `ACCGTGTG` the E-score was 0.295.
`GGTAGCAC` gave an E-score of 0.275.
For `ATACAGCA`, the E-score was 0.271.
The E-score of `GGCATGCC` is reported as 0.36.
`AGGCATGA` has an E-score of 0.294.
With `ACGCCGTC` the E-score was 0.27.
The E-score of `CACGTTTC` is reported as 0.419.
For `CATGCTGG`, the E-score was 0.447.
With `AACATGTT` the E-score was 0.288.
With `CACGGTGC` the E-score was 0.349.
`AACCCGTG` gave an E-score of 0.284.
The E-score of `ACACATGT` is reported as 0.467.
`AATGTGTC` gave an E-score of 0.295.

A few entries again (series 2):
`ATTCAAGA` gave an E-score of -0.226.
The E-score of `ATCTGCAC` is reported as -0.158.
`CAGACTAG` gave an E-score of -0.129.
For `CTGTTACC`, the E-score was -0.0138.
With `ATCCGTAA` the E-score was 0.254.
With `ACGATACT` the E-score was -0.0624.
`ACCTTCCG` gave an E-score of 0.199.
`CCTCTTCC` gave an E-score of -0.0289.
`CTACCGTA` has an E-score of 0.143.
`CGGCTAAG` gave an E-score of 0.308.
